Published values of several laboratories.
Each line is one published result; not all experiments were run side by side. Several values in a cell are separate wells, animals, samples, runs or records. ± marks the error that the study gave.
ACHE: Acetylcholinesterase (ACHE, Homo sapiens, UniProt P22303)
UniProt Q01959, sequence (whole entry, unmodified, looked up): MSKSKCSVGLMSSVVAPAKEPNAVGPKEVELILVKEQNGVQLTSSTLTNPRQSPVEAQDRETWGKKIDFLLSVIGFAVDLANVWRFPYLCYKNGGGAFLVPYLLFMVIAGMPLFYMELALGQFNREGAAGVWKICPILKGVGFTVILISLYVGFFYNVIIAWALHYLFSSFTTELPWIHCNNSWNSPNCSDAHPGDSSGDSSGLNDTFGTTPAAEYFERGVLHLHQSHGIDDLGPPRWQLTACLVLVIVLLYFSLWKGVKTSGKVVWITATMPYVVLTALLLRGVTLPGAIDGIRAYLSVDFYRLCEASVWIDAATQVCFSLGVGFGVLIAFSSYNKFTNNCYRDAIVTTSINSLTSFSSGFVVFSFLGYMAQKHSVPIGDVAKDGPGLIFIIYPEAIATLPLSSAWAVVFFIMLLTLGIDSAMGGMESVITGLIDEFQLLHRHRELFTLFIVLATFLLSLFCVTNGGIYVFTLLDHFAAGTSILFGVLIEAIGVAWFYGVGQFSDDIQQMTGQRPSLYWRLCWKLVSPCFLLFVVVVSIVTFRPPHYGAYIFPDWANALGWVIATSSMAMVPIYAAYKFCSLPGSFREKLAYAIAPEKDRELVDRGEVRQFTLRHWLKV
UniProt P22303, sequence (whole entry, looked up): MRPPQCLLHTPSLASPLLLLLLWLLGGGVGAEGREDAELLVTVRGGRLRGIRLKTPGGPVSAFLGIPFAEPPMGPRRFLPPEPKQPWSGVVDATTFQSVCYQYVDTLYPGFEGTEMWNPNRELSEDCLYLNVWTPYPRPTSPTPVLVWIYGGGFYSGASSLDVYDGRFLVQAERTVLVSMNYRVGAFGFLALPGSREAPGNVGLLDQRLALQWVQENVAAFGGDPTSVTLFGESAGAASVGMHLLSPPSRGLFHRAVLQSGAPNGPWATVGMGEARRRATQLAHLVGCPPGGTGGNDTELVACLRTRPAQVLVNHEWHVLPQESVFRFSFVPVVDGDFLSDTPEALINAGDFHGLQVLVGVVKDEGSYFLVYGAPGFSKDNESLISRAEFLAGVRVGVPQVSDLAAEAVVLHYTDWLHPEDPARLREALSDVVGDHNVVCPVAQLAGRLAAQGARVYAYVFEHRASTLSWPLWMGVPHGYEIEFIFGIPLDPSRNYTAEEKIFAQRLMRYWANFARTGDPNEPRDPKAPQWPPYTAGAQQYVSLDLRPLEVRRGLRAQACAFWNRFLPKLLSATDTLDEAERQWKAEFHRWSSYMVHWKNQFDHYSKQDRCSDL
UniProt O00748, sequence (whole entry, looked up): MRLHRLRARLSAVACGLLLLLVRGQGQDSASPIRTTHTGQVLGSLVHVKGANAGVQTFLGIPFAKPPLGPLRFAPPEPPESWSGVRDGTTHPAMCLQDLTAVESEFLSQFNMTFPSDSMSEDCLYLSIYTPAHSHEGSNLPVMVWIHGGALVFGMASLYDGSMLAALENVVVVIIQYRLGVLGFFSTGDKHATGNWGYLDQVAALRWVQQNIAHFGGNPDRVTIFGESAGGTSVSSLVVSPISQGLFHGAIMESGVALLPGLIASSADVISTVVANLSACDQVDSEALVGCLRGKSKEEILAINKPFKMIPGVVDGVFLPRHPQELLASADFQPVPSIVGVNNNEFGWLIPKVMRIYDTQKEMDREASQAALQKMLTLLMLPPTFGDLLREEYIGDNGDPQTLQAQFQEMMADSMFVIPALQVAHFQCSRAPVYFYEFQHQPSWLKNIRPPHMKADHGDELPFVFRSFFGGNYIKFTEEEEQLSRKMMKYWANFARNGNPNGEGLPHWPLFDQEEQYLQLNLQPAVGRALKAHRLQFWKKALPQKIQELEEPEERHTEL
UniProt Q9NZ01, sequence (whole entry, looked up): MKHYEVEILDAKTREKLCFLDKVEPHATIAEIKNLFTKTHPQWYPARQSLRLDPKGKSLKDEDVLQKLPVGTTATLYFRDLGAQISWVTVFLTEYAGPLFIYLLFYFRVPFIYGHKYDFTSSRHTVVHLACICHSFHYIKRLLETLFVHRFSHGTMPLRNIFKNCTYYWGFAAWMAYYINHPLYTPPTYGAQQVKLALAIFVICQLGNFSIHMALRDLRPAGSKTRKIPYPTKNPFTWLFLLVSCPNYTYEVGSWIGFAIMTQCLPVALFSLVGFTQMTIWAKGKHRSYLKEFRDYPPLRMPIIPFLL
UniProt Q9Y5Y3, sequence (whole entry, looked up): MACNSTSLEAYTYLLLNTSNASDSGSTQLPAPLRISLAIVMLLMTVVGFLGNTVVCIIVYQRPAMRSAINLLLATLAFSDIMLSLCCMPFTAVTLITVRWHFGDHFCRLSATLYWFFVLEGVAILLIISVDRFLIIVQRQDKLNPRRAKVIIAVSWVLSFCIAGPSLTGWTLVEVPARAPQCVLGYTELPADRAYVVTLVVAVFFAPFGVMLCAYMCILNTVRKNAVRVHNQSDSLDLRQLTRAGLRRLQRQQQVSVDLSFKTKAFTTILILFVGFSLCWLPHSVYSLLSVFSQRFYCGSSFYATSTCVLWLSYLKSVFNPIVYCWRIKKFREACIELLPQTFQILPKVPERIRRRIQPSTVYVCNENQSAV
UniProt Q9Y5N1, sequence (whole entry, looked up): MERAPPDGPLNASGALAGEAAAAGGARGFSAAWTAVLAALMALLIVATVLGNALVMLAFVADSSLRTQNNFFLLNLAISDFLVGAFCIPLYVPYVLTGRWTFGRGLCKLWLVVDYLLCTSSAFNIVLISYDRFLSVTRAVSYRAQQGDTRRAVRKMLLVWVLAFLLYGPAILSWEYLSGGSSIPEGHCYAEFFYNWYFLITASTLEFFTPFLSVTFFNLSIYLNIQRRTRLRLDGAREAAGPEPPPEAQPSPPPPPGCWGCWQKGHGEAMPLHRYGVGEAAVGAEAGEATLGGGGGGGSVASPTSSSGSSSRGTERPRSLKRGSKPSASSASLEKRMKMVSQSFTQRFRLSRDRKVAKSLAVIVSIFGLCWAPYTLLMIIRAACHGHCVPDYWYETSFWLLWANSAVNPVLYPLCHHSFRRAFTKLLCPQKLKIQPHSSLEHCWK
UniProt O43293, sequence (whole entry, looked up): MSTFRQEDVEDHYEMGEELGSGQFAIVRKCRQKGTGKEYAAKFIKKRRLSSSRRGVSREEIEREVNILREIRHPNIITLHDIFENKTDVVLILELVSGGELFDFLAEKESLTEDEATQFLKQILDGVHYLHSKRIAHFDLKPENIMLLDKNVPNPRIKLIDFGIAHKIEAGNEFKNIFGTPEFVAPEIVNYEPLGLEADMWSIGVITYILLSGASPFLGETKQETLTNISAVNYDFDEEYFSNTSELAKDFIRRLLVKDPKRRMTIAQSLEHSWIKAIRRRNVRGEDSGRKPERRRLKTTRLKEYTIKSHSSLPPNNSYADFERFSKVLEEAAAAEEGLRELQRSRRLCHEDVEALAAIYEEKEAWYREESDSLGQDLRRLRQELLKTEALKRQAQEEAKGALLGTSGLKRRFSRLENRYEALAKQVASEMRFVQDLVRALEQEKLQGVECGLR
UniProt Q8NET8, sequence (whole entry, unmodified, looked up): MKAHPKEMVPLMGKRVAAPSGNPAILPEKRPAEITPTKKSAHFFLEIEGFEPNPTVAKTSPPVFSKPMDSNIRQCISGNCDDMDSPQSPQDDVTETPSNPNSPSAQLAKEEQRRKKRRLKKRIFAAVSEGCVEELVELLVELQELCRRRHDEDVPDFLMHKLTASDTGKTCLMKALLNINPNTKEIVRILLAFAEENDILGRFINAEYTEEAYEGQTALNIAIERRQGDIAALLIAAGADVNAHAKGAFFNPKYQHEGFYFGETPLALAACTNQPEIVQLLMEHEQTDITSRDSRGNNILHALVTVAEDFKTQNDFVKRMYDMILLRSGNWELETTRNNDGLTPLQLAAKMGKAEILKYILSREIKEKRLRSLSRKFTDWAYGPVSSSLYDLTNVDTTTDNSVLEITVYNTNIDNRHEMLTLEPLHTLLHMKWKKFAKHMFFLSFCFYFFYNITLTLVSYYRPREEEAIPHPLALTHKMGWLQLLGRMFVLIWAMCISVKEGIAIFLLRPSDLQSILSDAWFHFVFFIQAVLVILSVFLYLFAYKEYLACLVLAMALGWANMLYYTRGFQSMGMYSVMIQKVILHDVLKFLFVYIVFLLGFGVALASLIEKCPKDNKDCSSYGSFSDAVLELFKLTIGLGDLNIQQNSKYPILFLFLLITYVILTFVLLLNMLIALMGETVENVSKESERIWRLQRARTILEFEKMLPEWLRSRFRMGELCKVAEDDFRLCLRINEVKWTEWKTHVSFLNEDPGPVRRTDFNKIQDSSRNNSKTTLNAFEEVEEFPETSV
UniProt Q92993, sequence (whole entry, looked up): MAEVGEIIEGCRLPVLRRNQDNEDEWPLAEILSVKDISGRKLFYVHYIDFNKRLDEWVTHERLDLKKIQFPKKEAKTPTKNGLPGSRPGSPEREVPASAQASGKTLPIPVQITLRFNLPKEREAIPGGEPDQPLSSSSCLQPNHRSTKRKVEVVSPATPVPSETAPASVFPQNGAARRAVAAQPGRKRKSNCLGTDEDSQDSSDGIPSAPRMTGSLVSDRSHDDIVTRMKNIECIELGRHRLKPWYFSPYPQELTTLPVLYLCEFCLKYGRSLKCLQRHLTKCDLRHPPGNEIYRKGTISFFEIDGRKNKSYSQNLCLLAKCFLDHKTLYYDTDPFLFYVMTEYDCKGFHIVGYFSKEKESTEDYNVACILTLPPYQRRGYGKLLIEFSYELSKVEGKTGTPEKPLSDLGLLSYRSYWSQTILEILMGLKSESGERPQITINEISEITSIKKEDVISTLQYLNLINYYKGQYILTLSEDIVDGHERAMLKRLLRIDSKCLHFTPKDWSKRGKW

Structure (SMILES)	target or system	test	system	conditions	how to read	quantity	value
CCOc1ccccc1C(=O)Nc1ccc(Cl)c(C(F)(F)F)c1	KAT5 (Homo sapiens, UniProt Q92993)	SPR	–	0.023 µM	higher = more binding	SPR binding response	0.126 RU
CC[C@H](C)[C@H](NC(=O)CNC(=O)[C@@H](N)CCCCN)C(=O)N[C@@H](CC(C)C)C(=O)N[C@@H](CCCCN)C(=O)N[C@@H](CCCNC(=N)N)C(=O)N[C@@H](CCC(=O)O)C(=O)N[C@@H](CCCCN)C(=O)N[C@@H](CCCNC(=N)N)C(=O)N[C@@H](CC(C)C)C(=O)N[C@@H](CCCNC(=N)N)C(=O)N[C@@H](CCCNC(=N)N)C(=O)N[C@@H](CCCCN)C(=O)N[C@@H](CC(N)=O)C(=O)N[C@H](C(=O)N[C@@H](Cc1c[nH]cn1)C(=O)N[C@@H](Cc1c[nH]c2ccccc12)C(=O)N1CCC[C@H]1C(=O)N[C@@H](CCC(=O)O)C(=O)N[C@@H](CCC(=O)O)C(=O)NCC(=O)N[C@@H](CCCCN)C(=O)N[C@@H](CC(C)C)C(=O)N[C@@H](CCCNC(=N)N)C(=O)N[C@@H](CCC(=O)O)C(=O)N[C@@H](Cc1ccccc1)C(=O)N[C@@H](Cc1ccccc1)C(=O)N[C@@H](Cc1ccccc1)C(=O)N[C@@H](Cc1ccccc1)C(=O)N[C@@H](CCC(=O)O)C(=O)N[C@@H](CC(C)C)C(=O)N[C@@H](CC(=O)O)C(=O)N[C@@H](CCC(=O)O)C(=O)N[C@@H](C)C(=O)N[C@@H](CCC(=O)O)C(=O)N[C@@H](CCCNC(=N)N)C(=O)N[C@H](C(=O)N[C@@H](CC(N)=O)C(=O)N[C@H](C(=O)O)C(C)C)C(C)C)C(C)C	HeLa and HEK-293T cells	phosphatase bead binding, competitive inhibitor, PIB pulldown iBAQ LC-MS/MS, item: FGFR1OP2	–	concentration not given	reference: untreated control	log2 fold change	0.0224
[2H]c1c([2H])c([C@]2([2H])CCCN2C(=O)C(C)(C)Oc2ccc3cn[nH]c3c2)c([2H])c([2H])c1C([2H])([2H])[2H]	DAPK3 (Homo sapiens, UniProt O43293)	KINOMEscan	–	1 µM	reference: DMSO control	remaining binding	77%
Oc1ccc2c3c1O[C@H]1[C@@H](O)CC[C@@]4(O)[C@@H](C2)N(CC2CCC2)CC[C@]314	Probable G-protein coupled receptor 45 (GPR45, Homo sapiens, UniProt Q9Y5Y3)	β-arrestin recruitment, TANGO luminescence, item: GPR45	–	concentration not given	reference: basal luminescence	log2 fold change	-0.089
c1ccc2cc([C@]34CNC[C@H]3C4)ccc2c1	SLC6A3 (Homo sapiens, UniProt Q01959, V152A)	inhibitor, [3H]dopamine uptake	–	10 µM, V152A mutant	reference: no inhibitor	dopamine uptake	6.53% and 3.03% and 4.6%
CN1CCN(c2cc(-c3ccncc3)c(-c3ccc4ccccc4c3)nn2)CC1	HRH3 (Homo sapiens, UniProt Q9Y5N1)	agonist, FLIPR	–	12.5 µM	–	activation	-1.5%
C[C@H]1CN(c2n[nH]c3nc(N[C@H]4CC[C@H](NS(=O)(=O)CCC(F)(F)F)CC4)ncc23)CCO1	Very-long-chain enoyl-CoA reductase (Homo sapiens, UniProt Q9NZ01)	Kinobeads competition, item: GPSN2	–	0.8 µM, unit not given	reference: vehicle	remaining binding	1.04
O=S(=O)([O-])C(F)(F)C(F)(F)C(F)(F)C(F)(F)C(F)(F)C(F)(F)C(F)(F)C(F)(F)F.[K+]	–	RT-qPCR, item: Cyp4a10	mouse, ethanol-fed, liver	dose not given	reference: efavirenz	mRNA level	increased
Cc1ccsc1C(=O)C1CCCN(Cc2cnc(N3CCCC3)s2)C1 (stereo not shown)	Trypanosoma cruzi	reporter translation, Renilla luciferase mRNA translation	cell-free extract	40 µM	reference: DMSO	inhibition	-12%
Cl.c1ccc2sc(C3(N4CCCCC4)CCCCC3)cc2c1	ACHE	enzyme activity, inhibitor	–	–	–	IC50	inactive
CCCC1COC(Cn2cncn2)(c2ccc(Cl)cc2Cl)O1 (stereo not shown)	Trypanosoma cruzi	reporter translation, Renilla luciferase mRNA translation	cell-free extract	40 µM	reference: DMSO	inhibition	2.4%
C[C@@H](N[C@H]1CCCC[C@@H]1NC(=O)c1ccc(Cl)cc1)c1cccc2ccccc12.Cl	ACHE	enzyme activity, inhibitor	–	–	–	IC50	inactive
COc1ccc(N2C(=O)N(c3c(C)cccc3Cl)Cc3cnc(Nc4ccc(C5CCN(C)CC5)cc4OC)nc32)nc1	JAK3 (Homo sapiens, UniProt P52333)	kinase activity	–	0.5 µM	–	inhibition	3.64%
CC[C@H]1CN2CC[C@H]1C[C@H]2[C@H](O)c1ccnc2ccc(OC)cc12	ACHE	enzyme activity, inhibitor	–	–	–	IC50	inactive
O=C(c1ccc(Cl)cc1)N1CCN2C(=O)N(OC(=O)N3CCOc4ccccc43)C(=O)C2C1 (stereo not shown)	Cocaine esterase (CES2, Homo sapiens, UniProt O00748)	enzyme activity, inhibitor, MS-based ABPP	SW-620 in situ	10 µM, 2 h, 37 °C	reference: compound over DMSO, lower = stronger inhibition	median ratio	1.2
CCOC(=O)C1(CCOc2ccccc2)CCN(Cc2ccc(O)c(Cl)c2)CC1	ACHE	enzyme activity, inhibitor	–	–	–	IC50	inactive
CCCc1cc(O)c2c(c1)OC(C)(C)[C@@H]1CCC(C)=C[C@@H]21	TRPV3 (Homo sapiens, UniProt Q8NET8, H426A)	calcium uptake, TRPV3 modulator, Fura-2 AM calcium imaging	–	–	–	Hill coefficient	3.46 ± 0.44
CN[C@@H](C)[C@H]1[C@H](O)C[C@@]2(C)[C@@H]3CC[C@H]4C(C)(C)[C@@H](NC)CC[C@@]45C[C@@]35CC[C@]12C	ACHE	enzyme activity, inhibitor	–	–	–	IC50	inactive
CC[C@H](C)[C@H](NC(=O)CNC(=O)[C@@H](N)CCCCN)C(=O)N[C@@H](CC(C)C)C(=O)N[C@@H](CCCCN)C(=O)N[C@@H](CCCNC(=N)N)C(=O)N[C@@H](CCC(=O)O)C(=O)N[C@@H](CCCCN)C(=O)N[C@@H](CCCNC(=N)N)C(=O)N[C@@H](CC(C)C)C(=O)N[C@@H](CCCNC(=N)N)C(=O)N[C@@H](CCCNC(=N)N)C(=O)N[C@@H](CCCCN)C(=O)N[C@@H](CC(N)=O)C(=O)N[C@H](C(=O)N[C@@H](Cc1c[nH]cn1)C(=O)N[C@@H](Cc1c[nH]c2ccccc12)C(=O)N1CCC[C@H]1C(=O)N[C@@H](CCC(=O)O)C(=O)N[C@@H](CCC(=O)O)C(=O)NCC(=O)N[C@@H](CCCCN)C(=O)N[C@@H](CC(C)C)C(=O)N[C@@H](CCCNC(=N)N)C(=O)N[C@@H](CCC(=O)O)C(=O)N[C@@H](Cc1ccc(O)cc1)C(=O)N[C@@H](Cc1ccccc1)C(=O)N[C@@H](Cc1ccc(O)cc1)C(=O)N[C@@H](Cc1ccccc1)C(=O)N[C@@H](CCC(=O)O)C(=O)N[C@@H](CC(C)C)C(=O)N[C@@H](CC(=O)O)C(=O)N[C@@H](CCC(=O)O)C(=O)N[C@@H](C)C(=O)N[C@@H](CCC(=O)O)C(=O)N[C@@H](CCCNC(=N)N)C(=O)N[C@H](C(=O)N[C@@H](CC(N)=O)C(=O)N[C@H](C(=O)O)C(C)C)C(C)C)C(C)C	HeLa and HEK-293T cells	phosphatase bead binding, competitive inhibitor, PIB pulldown iBAQ LC-MS/MS, item: MOB4	–	concentration not given	reference: untreated control	log2 fold change	-0.13

Some of these lines once more:
Structure (SMILES)	target or system	test	system	conditions	how to read	quantity	value
Cl.c1ccc2sc(C3(N4CCCCC4)CCCCC3)cc2c1	ACHE	enzyme activity, inhibitor	–	–	–	IC50	inactive
